Measurements from different studies.
Numbered parts are unrelated; each lists some results of a single study.

Sample 1
Target: Sal-like protein 4, full length isoform B (SALL4, Homo sapiens, UniProt Q9UJQ4-2, residues 1-616)
Method: universal PBM
Form: double-stranded DNA, one strand shown
Sample: in vitro
Concentration: not given
Notes: 8-mer, flanks averaged, mean of replicates
Direction: higher = stronger binding
Endpoint: E-score
Target sequence (chain): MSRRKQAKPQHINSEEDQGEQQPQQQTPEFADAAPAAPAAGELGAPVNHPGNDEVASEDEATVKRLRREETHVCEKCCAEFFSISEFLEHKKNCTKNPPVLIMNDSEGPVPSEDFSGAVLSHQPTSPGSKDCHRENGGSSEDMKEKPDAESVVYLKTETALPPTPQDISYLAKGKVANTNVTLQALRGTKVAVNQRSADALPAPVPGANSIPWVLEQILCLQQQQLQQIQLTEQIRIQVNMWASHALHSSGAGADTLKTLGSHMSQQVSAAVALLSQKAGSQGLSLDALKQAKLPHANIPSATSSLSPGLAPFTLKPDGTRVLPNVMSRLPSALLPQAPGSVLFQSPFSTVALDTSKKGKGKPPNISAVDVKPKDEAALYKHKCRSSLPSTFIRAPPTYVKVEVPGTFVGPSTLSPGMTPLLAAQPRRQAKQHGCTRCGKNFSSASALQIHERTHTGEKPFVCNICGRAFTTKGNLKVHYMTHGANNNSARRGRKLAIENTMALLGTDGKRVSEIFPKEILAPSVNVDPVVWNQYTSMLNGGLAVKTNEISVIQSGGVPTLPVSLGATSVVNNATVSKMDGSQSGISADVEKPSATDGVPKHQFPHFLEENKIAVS
GTTCGAAC: -0.0125
AGGGGCAA: -0.12
AGGCACCG: -0.225
AGATAGTC: -0.0114
GCTTCATA: 0.096
AATAAATT: 0.406
ATGATTTC: 0.371
CGCACCTA: -0.121
TCCTGCGA: -0.139
CCCCTACA: -0.0314
CAAACGCC: -0.158
CCTCCAAG: -0.138
ACGTACAC: 0.123
CTCTGAGA: -0.178
GAATGAGC: 0.053
AGCGTTAG: -0.0764
CAATTCTA: 0.0973
TATACGAA: 0.299
CAACTGTC: -0.0693
CAAATAGC: 0.184
AACTGGGG: -0.165
GAAGACTC: -0.0961
CGAAGGGA: -0.209
AGTGGTTA: 0.0815
ACAGTGGT: -0.0118

Sample 2
Target: Phosphate system positive regulatory protein PHO4, full length, GST-tagged (PHO4, Saccharomyces cerevisiae, UniProt P07270, residues 1-312)
Method: competition protein-binding microarray
Form: double-stranded DNA, one strand shown
Sample: in vitro
Concentration: 2 µM
Notes: whole 60-bp probe, lowest competitor level
With: Cbf1 competitor, 0.05 µM
Direction: higher = stronger binding
Endpoint: fluorescence intensity
Shared flanks, not repeated: … GTCTTGATTCGCTTGACGCTGCTG
Construct (chain): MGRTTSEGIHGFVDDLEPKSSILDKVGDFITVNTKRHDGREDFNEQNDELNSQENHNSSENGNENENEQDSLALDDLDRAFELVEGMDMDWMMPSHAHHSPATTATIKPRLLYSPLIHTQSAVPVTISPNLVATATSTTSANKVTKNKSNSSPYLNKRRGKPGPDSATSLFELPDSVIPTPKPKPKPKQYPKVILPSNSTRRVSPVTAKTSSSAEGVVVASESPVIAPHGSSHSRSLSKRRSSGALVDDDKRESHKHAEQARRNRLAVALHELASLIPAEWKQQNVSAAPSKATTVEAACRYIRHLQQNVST
CTGCATCGGCCGGCCCATGTGAAAAGGAAGTATTTA: 7230 a.u.
GACTTCATTTGGAACATCATATAGACAAATGGAGTT: 3310 a.u.
CTAACGAAGGTTTTTCACGTGGACTACAAGCCAAGT: 14000 a.u.
TCTTCCAGCCTGGGTCCCGTGCGGAAGGGCGGCGGA: 6850 a.u.
CGGGGTTAAGTTTGCCTAGTGGGTGGCTTGCAGCAG: 4420 a.u.
CTGTTCTGTTCATCGCATGTGCATATATATATATAG: 10400 a.u.
GAGTTATAATTTCACCACGTGAGCCCGATGAAATAG: 16700 a.u.
GAGCAAGATACTTAGCACGTGAAGCGAGGAACAGTT: 15100 a.u.
CATACCCAACCTTTTCACGTGGCTTAAGATATTTGT: 15100 a.u.
CAAGATTGCCATTTGCACGGGTAGCGCAAGTGAGAA: 6870 a.u.
CGTTCGTAATGCCAACACGATGCAGACCTGAGCCTA: 9400 a.u.
ACTGGTCAAAACCATCACGTGAAAAGGAAAACAAGA: 12500 a.u.
TTTCGATAATGTTAAGGAGTTTGAATTAACTACCAG: 2810 a.u.
CTTTCCCGATCTTTTCACGTGGATTTAGCACATTTG: 16000 a.u.
ACTCGGCTAGGTATCCCCGTGGATTTTTACCCAACA: 7250 a.u.
CGTCCTAGCGATTGAGCGGTGGGTGCCATGAGGAAG: 6120 a.u.
ATCCTTTTGAATCGGCACGTGAATATACTAAAGCTT: 16300 a.u.
TATCACTGAGCTGTTCTCGTGGCCGTTAGGTAAACC: 7510 a.u.
CGGAGCTGCAAGTACTACGTGCCAGCAGCATAATAA: 7350 a.u.
GACTCACCCACTCAGGACATGATGTCAGTAGCGGGT: 6060 a.u.
GTCTTGTCTCATTGGGGAGTGGGTGTCCCCACTTCA: 5160 a.u.
TCTGTATTCCCCAGAGTTGTGACGAATAACTGGTGA: 3720 a.u.
CGGGGTTAAGTTTGGTACGTGGGTGGCTTGCAGCAG: 7690 a.u.
GTCTTGTCTCATTGGGGGGTGGGTGTCCCCACTTCA: 5340 a.u.
TTGCCTTTTTCACTTCACGTGCTTTTGGTACATACT: 14000 a.u.

Sample 3
Target: Histone acetyltransferase KAT6A, winged helix 1, GST fusion (KAT6A, Homo sapiens, UniProt Q92794, residues 1-85)
Method: protein binding microarray
Form: double-stranded DNA, one strand shown
Sample: in vitro
Concentration: not given
Notes: 8-mer, flanks averaged, mean of 2 arrays, mostly near background
Relative to: not given
Direction: higher = stronger binding
Endpoint: E-score
Construct (chain): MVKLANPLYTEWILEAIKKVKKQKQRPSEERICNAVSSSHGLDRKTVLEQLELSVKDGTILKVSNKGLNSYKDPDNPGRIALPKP
ACATGCTA: -0.125
AATCAGGC: -0.124
CGCCGTGC: 0.388
ACACACAT: -0.212
AACTCTAT: -0.163
GTAGCGTA: 0.215
GACTTCTC: -0.251
GGAACAAA: -0.189
AGTCCCAC: -0.22
GAACGACA: -0.228
AATATTTC: -0.0987
CGGCCTGA: 0.24
AAACTGAC: -0.0204
AGTGGTAT: -0.158
AGATGCTC: -0.168
AACTTACC: -0.0249
GACAAGCC: 0.04

Sample 4
Target: RNA binding protein fox-1 homolog 2, RRM domain, GST-SBP tag (RBFOX2, Homo sapiens, UniProt O43251-10, residues 100-194)
Method: RNA Bind-n-Seq
Form: RNA
Sample: in vitro
Concentration: 365 nM
Notes: natural RNA segment, single round, ends assumed
Relative to: no-protein control
Direction: higher = stronger binding
Endpoint: RBNS enrichment (R)
Shared flanks, not repeated: GGGAGUUCUACAGUCCGACGAUC … UGGAAUUCUCGGGUGCCAA
Construct (chain): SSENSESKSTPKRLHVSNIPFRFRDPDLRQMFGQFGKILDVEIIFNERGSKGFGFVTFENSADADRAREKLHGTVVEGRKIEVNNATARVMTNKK
ACUGGAAGCAGGGGAGGUACGAGAGAACUUUUACCCUGUGGUCCUCAACCUGAGACCAAUAUGCCAGGCCAAGCACAGCCUCCUGGUAUCUCUGGAGCACAACUACAGCA: 2.23
AGCACAGACAGUGUUUUUGACCCUGACAGCCCUGGCUUAGCUUUUGGCUUCCAUGAAUCAGUACUGUUGUUAAAAGCAGAGCUCUGCUGUUAAGAGGUUCUGUUUCUAAG: 0.257
GUGGCACACACUGACCACACAUUAGGCUGUGUCACCAUUGUGUGGUGUACCUGCUGGAAGAAUUCUAGCAUGCUACUUGGGGACAUAAUUUCAGUGGGAAAUAUGCCACU: 4.36
AAAUUUUACAUGUUCUCUUUUAUGACAGAGAGCAGCACUGGUUCUGUUAUUUUUAAAAUGAAUAAUUGAUUUCUUGAUAGGUGUUUAAUAUUUCUUCCCUCACUGCUGAU: 0.529
GCAAGGUAUUAAAAUGCAUUUAUAAAUUCUUCUUGGCUUCAUUCAUGAAUAAACGUGUUAGCAAUUUAAAACAUGUCCUUAUUUGAAAUAACUUGAAAGUGCUUAAUAUG: 0.473
AGUAACUAAAACACCCUUCUCUCGGAAUAAUAGACCCUGAAGUCUCUCUUUUUCAAGUUGUCCUUUCUUCACCCUUUACUGAUUUAAUACAGAAUAACAAUCUUAUUUUC: 0.576
AUGUUCUGCUGCGUCCCCACCGUGACCUGCCUGGCCUCCCCUGUCUCAGGGAGCAGGUCACAGGUCACCAUGGGGAAUUCUAGCCCCCACUGGGGGGAUGUUACAACACC: 0.301
CCUGGCCCUGUUCCUGGCAUAUGGCAAUGUACCCCAGGCUCAGGGAUCUCCCUUCCUUGAGGAUGUUCUUGGCAUGGUCCUGCCCUACCUCAUGGGAUGGGCAAUGCACA: 0.544
UCCCUUGUACCAGAGGGCGGCACCGUGGAAAUUCUGUUUUCCCUGUAGCAUAUUGUGUUGGAUUGCAUUACUGGCAGAGAAAGGACAAGGUGCCAUUCAAGUCCUAGGGU: 1.12
UGAGAACCGCGCCGGUGUCCCCAGAGACCAGGCUGUGUCCCUCUUCUCUUCCCUGCGCCUGUGAUGCUGGGCACUUCAUCUGAUCGGGGGCGUAGCAUCAUAGUAGUUUU: 0.419
GCCUUGGGAGAAGUCUACAUUUCCCAGACAAUAGUCUAGGCCUCUGGAACAGUUUCCUUCUCUGCUUUUGACUUUAAAUCCCUGGGUGUCCCCCAGGAGUCAGUUUGCUA: 0.262
GGCUCCACCAGGUACCAAGGGCAGCUGCUUUUCCUGUCUUUUGUGCAUGGGCGACCCAUUACAGUAUGAGAUAAGAUUGAGUUCUGAUGCGUUAAACGGAGGUGGCAGAA: 0.73

A few entries again (sample 3):
GTAGCGTA: 0.215
GACTTCTC: -0.251
GGAACAAA: -0.189
AGTCCCAC: -0.22
GAACGACA: -0.228
AATATTTC: -0.0987
CGGCCTGA: 0.24
AAACTGAC: -0.0204
